Assay results of several laboratories.
Each line is one published result; not all experiments were run side by side. Several values in a cell are separate wells, animals, samples, runs or records. ± gives the spread as reported.
Organism: SARS-CoV-2

Molecule | test | system | setting | how to read | quantity | value
CN(CCc1ccc(Cl)c(Cl)c1)CCN1CCCC1 | viral replication, anti-nucleoprotein immunostaining | Vero E6 | – | – | IC50 | 5.37 µM
CC(C)=CCc1c(O)ccc(C(=O)/C=C/c2ccc(O)cc2)c1O | viral cytopathic effect | Vero E6 | 25 µM | – | mean inhibition | 0%
CCn1cc(-c2ccnc3[nH]c(-c4cccc(CN(C)C)c4)cc23)c(-c2ccc(NC(=O)N(C)C)cc2)n1 | viral replication, GFP plate reader screen | – | cell-based | – | EC50 | > 100 µM
CCC(CC)COC(=O)[C@H](C)N[P@](=O)(OC[C@H]1O[C@@](C#N)(c2ccc3c(N)ncnn23)[C@H](O)[C@@H]1O)Oc1ccccc1 | RT-qPCR, refers to: viral RNA | Vero | 10 µM | higher means less virus | Ct value | 26.8 cycles
COc1ccc2c(c1)N(C[C@H](C)CN(C)C)c1ccccc1S2 | viral replication, GFP plate reader screen | – | cell-based | – | EC50 | > 100 µM
COc1ccc(-c2sc(NC(=O)C(C)(C)C)nc2C)cc1S(=O)(=O)Nc1ccc(O)cc1 | – | – | concentration not given, Paris laboratory | – | viral replication inhibition | inactive
COc1ccc(-c2nc(CN3CCC(C(=O)NCCCN4CCN(c5ccccc5F)CC4)CC3)c(C)o2)cc1OC | cytopathic effect, cell-based CPE | USA_WA1/2020 | round 2, 5-point dilution | – | maximal response | 73.7%
O=c1[nH]c2ccccc2n1CCCN1CCN(C(c2ccccc2)c2ccccc2)CC1 | viral replication, high-content imaging screen | – | cell-based | – | EC50 | > 100 µM
CC1CCN(CCCC(=O)c2ccc(F)cc2)CC1 | viral replication | Vero E6 | inactive set pIC50 4 | – | IC50 | > 10 µM
COc1cc(C2C(C#N)=C(N)Oc3c2c(C)nn3-c2ccc(Cl)cc2)cc(OC)c1OC (centres unmarked) | viral replication | Vero | 10 µM | – | viral reduction | 10.8%
CC(C)(C)[C@H](NC(=O)C(F)(F)F)C(=O)N1C[C@H]2[C@@H]([C@H]1C(=O)N[C@H](C#N)C[C@@H]1CCNC1=O)C2(C)C | viral replication | Delta strain | 48 h | – | EC90 | 0.0329 ± 0.0029 µM
CC1=C[C@]23C(=O)[C@@H](C=C(CO)[C@@H](O)[C@]2(O)[C@H]1O)[C@H]1[C@@H](C[C@H]3C)C1(C)C | viral replication | Huh-7 | – | – | IC50 | > 2 µM
O=C(O[C@@H]1Cc2c(O)cc(O)cc2O[C@@H]1c1cc(O)c(O)c(O)c1)c1cc(O)c(O)c(O)c1 | viral replication | Vero E6 | 25 µM | relative to: mean of replicates | CPE inhibition | 8.33%
CC(C)(C)c1cc(C(C)(C)C)c(NC(=O)c2c[nH]c3ccccc3c2=O)cc1O | viral replication, high-content imaging screen | – | cell-based | – | EC50 | > 25.1 µM
CN(C)C(=N)N=C(N)N | – | SB2 | 500 µM, unit not given | relative to: DMSO | viral RNA level | 0.399 and 0.309
CCNC(=O)c1cc2c(-c3cc(C(C)(C)O)ccc3Oc3c(C)cc(F)cc3C)cn(C)c(=O)c2[nH]1 | – | Vero E6 | concentration not given, NYC laboratory | – | viral replication inhibition | inactive
Cn1c(=O)c2c(nc(C=Cc3cccc(Cl)c3)n2C)n(C)c1=O | viral replication, inhibitor | Vero E6, USA-WA1/2020 | 24 h | – | EC90 | > 2.5 µM
C=CCN1CC[C@@]2(C)c3cc(O)ccc3C[C@@H]1[C@@H]2C | viral replication | Vero E6 | inactive set pIC50 4 | – | IC50 | > 10 µM
Cc1nn(-c2ccc(Cl)cc2)c2c1C(c1ccc(Br)cc1)C(C#N)=C(N)O2 (centres unmarked) | – | Vero C1008 | 10 µM | relative to: positive control | viral titre log reduction | 0.238 log10
CN(C)CCC(c1ccc(Cl)cc1)c1ccccn1 (centres unmarked) | viral replication, RT-qPCR | A549 expressing ACE2 | – | – | IC50 | > 10 µM
NC(=O)c1ncn([C@@H]2O[C@H](CO)[C@@H](O)[C@H]2O)n1 | – | – | concentration not given, Paris laboratory | – | viral replication inhibition | inactive
Cc1nn(-c2ccc(Cl)cc2)c2c1C(c1c(Cl)cccc1Cl)C(C#N)=C(N)O2 (centres unmarked) | – | Vero C1008 | 10 µM | relative to: positive control | viral titre log reduction | 0.269 log10
Cc1noc2c(NC3CCOCC3)cc(-c3cccc(C(F)(F)F)c3)nc12 | cytopathic effect | USA_WA1/2020 | retest, 8-point, duplicates | – | maximum response | 17.3%
COc1cc(OC)c2c(=O)[nH]c(-c3cc(C)c(OCCO)c(C)c3)nc2c1 | – | – | concentration not given, Paris laboratory | – | viral replication inhibition | inactive
O=c1ccc2ccc(OCCCCN3CCN(c4cccc5sccc45)CC3)cc2[nH]1 | viral replication, high-content imaging screen | – | cell-based | – | EC50 | > 100 µM
Clc1ccc(C(OCCN2CCCCC2)c2ccccc2)cc1 (centres unmarked) | viral replication | Vero E6 | concentration not given | – | activity class | active
Cc1ccc2nc(C3CCCN(Cc4cccc(-c5cccnc5)c4)C3)[nH]c(=O)c2c1 (centres unmarked) | cytopathic effect, cell-based CPE | USA_WA1/2020 | round 2, 5-point dilution | – | AC50 | 12.6 µM

Molecule | test | system | setting | how to read | quantity | value
c1cncc(-c2c[nH]nn2)c1 | viral replication | Huh-7 | – | – | IC50 | > 2 µM
CCN(CC)CCC1(c2ccccc2)C(=O)Oc2ccccc21 (centres unmarked) | viral replication | Vero E6, USA-WA1/2020 | 2.5 µM | – | inhibition | 52.8%
NCCCC[C@H](N[C@@H](CCc1ccccc1)C(=O)O)C(=O)N1CCC[C@H]1C(=O)O | – | – | concentration not given, Paris laboratory | – | viral replication inhibition | inactive
Oc1ncnc2[nH]ncc12 | viral replication | Huh-7 | – | – | IC50 | > 2 µM
Cc1nn(-c2ccc(Cl)cc2)c2c1C(c1ccc(-c3ccccc3)cc1)C(C#N)=C(N)O2 (centres unmarked) | viral replication | Vero | 10 µM | – | viral reduction | 5.04%
CN(C)CCOC(c1ccc(Cl)cc1)c1ccccn1 (centres unmarked) | viral replication | Huh-7 | – | – | IC50 | > 2 µM
Clc1ccc2nc(N3CCC(NCCc4cccnc4)CC3)sc2c1 | cytopathic effect | USA_WA1/2020 | round 2, 5-point | – | efficacy | 101%
NS(=O)(=O)c1cc(C2(O)NC(=O)c3ccccc32)ccc1Cl (centres unmarked) | viral replication | Huh-7 | – | – | IC50 | > 2 µM
Cc1nn(-c2ccc(Cl)cc2)c2c1C(c1ccc(Cl)cc1)C(C#N)=C(N)O2 (centres unmarked) | – | Vero | 1 µM | – | viral titre | 920000 IU/mL
CCN(CC)CCOC(=O)C(O)(c1ccccc1)c1ccccc1 | viral replication, RT-qPCR | A549 expressing ACE2 | – | – | IC50 | > 10 µM
Cc1ccccc1CN1C(=O)c2ccccc2Sc2ccc(C(=O)NCCCN3CCOCC3)cc21 | cytopathic effect, cell-based CPE | USA_WA1/2020 | – | – | AC50 | 14.1 µM
[N-]=[N+]=N[C@]1(CO)O[C@@H](n2ccc(N)nc2=O)[C@@H](F)[C@@H]1O | – | Vero E6, USA-WA1/2020 nLuc | concentration not given, regardless of pre-treatment duration | – | viral replication | no inhibition
Cc1ccc(NS(=O)(=O)c2cccc(C(=O)NC3CCN(c4ncnc5[nH]cnc45)CC3)c2)cc1 | – | A549-ACE2, Wuhan-Hu-1 | 0.09145 µM | relative to: untreated | relative infection | 99.1%
Cc1ccc(Cl)cc1N1CCN(CCCNc2ncnc3onc(-c4ccc(F)cc4)c23)CC1 | cytopathic effect | USA_WA1/2020 | round 1, 5-point | – | maximum response | 65.8%
CC(C)(C)[C@H](NC(=O)C(F)(F)F)C(=O)N1C[C@H]2[C@@H]([C@H]1C(=O)N[C@H](C#N)C[C@@H]1CCNC1=O)C2(C)C | viral replication, infectious virus | Vero E6 | 0.1111 µM | – | inhibition | 110%
O=C(/C=C/c1ccc(O)c(O)c1/C=C/c1ccc(O)c(O)c1)O[C@H](Cc1ccc(O)c(O)c1)C(=O)O | viral replication | Vero E6 | 25 µM | relative to: mean of replicates | CPE inhibition | 0%
COc1cc2c(N3CCN(C(=O)Nc4ccc(OC(C)C)cc4)CC3)ncnc2cc1OCCCN1CCCCC1 | viral replication, high-content imaging screen | – | cell-based | – | EC50 | > 100 µM
COc1ccc(C[C@@H]2c3cc(Oc4cc(C[C@@H]5c6cc(O)c(OC)cc6CCN5C)ccc4O)c(OC)cc3CCN2C)cc1 | cytopathic effect | Vero E6 | 25 µM, replicate run | – | mean inhibition | 0%
Cc1nn(-c2ccc(Cl)cc2)c2c1C(c1ccc(F)cc1F)C(C#N)=C(N)O2 (centres unmarked) | viral replication | Vero | 1 µM | – | viral reduction | 0.0548%
Nc1ccn([C@@H]2O[C@H](CO)[C@@H](O)C2(F)F)c(=O)n1 | viral replication | Huh-7 | – | – | IC50 | > 2 µM
COc1ccccc1-c1ccc(CN2CCCC(c3nc4ccc(C)cc4c(=O)[nH]3)C2)cc1 (centres unmarked) | cytopathic effect, cell-based CPE | USA_WA1/2020 | round 1, 5-point dilution | – | AC50 | 11.2 µM
COc1ccc(C(CN(C)C)C2(O)CCCCC2)cc1 (centres unmarked) | viral replication, RT-qPCR | A549 expressing ACE2 | – | – | IC50 | > 10 µM
COc1cc(/C=C/C(=O)N2CCC=CC2=O)cc(OC)c1OC | viral replication, GFP plate reader screen | BetaCov/Belgium/GHB-03021/2020 | cell-based | – | EC50 | > 50.1 µM
Cc1c(Cl)cccc1-c1ccc(CNCCSc2nnnn2-c2ccccc2)o1 | cytopathic effect | USA_WA1/2020 | round 1, 5-point | – | efficacy | 43%
CC[C@H]1C[N@@]2CC[C@H]1C[C@H]2[C@H](O)c1ccnc2ccc(OCCC(C)C)cc12 | viral replication, high-content imaging screen | – | cell-based | – | EC50 | > 100 µM
calpain inhibitor III | viral replication | Vero E6, USA-WA1/2020 | – | – | EC90 | 1.03 µM

Some of these lines once more:
Molecule | test | system | setting | how to read | quantity | value
CN(C)CCC(c1ccc(Cl)cc1)c1ccccn1 (centres unmarked) | viral replication, RT-qPCR | A549 expressing ACE2 | – | – | IC50 | > 10 µM
COc1cc(/C=C/C(=O)N2CCC=CC2=O)cc(OC)c1OC | viral replication, GFP plate reader screen | BetaCov/Belgium/GHB-03021/2020 | cell-based | – | EC50 | > 50.1 µM
CCNC(=O)c1cc2c(-c3cc(C(C)(C)O)ccc3Oc3c(C)cc(F)cc3C)cn(C)c(=O)c2[nH]1 | – | Vero E6 | concentration not given, NYC laboratory | – | viral replication inhibition | inactive
Cc1ccc(NS(=O)(=O)c2cccc(C(=O)NC3CCN(c4ncnc5[nH]cnc45)CC3)c2)cc1 | – | A549-ACE2, Wuhan-Hu-1 | 0.09145 µM | relative to: untreated | relative infection | 99.1%
COc1ccc(-c2sc(NC(=O)C(C)(C)C)nc2C)cc1S(=O)(=O)Nc1ccc(O)cc1 | – | – | concentration not given, Paris laboratory | – | viral replication inhibition | inactive
